# Experimental data pooled from the literature.
# Parts stem from different laboratories: compare values within a part only.
# UniProt Q15375, sequence (whole entry, looked up): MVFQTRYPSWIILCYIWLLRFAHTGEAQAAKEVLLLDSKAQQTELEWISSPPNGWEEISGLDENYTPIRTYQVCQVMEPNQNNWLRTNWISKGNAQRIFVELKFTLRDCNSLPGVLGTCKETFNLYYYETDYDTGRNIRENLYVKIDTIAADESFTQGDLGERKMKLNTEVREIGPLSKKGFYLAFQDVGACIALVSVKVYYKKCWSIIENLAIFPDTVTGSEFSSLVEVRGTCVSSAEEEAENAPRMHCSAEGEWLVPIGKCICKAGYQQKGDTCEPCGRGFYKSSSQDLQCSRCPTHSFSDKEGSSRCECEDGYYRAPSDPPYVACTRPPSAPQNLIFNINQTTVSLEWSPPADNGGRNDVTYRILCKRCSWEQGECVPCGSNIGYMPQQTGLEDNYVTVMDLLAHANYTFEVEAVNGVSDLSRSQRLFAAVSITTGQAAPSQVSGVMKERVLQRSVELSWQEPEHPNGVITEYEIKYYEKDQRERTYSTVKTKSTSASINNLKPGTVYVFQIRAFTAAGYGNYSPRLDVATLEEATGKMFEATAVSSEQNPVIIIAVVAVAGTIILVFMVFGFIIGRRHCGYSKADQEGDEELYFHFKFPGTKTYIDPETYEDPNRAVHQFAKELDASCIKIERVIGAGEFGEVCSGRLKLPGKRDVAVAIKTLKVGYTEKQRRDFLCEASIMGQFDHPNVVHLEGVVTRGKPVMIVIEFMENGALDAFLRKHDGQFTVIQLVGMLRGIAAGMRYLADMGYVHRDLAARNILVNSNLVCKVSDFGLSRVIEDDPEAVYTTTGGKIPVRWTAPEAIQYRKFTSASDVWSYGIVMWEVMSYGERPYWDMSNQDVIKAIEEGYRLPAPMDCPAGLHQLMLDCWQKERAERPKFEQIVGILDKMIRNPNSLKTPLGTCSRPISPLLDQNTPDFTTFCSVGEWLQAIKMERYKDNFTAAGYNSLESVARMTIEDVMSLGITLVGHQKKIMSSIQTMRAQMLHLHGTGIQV
# UniProt P23443, sequence (whole entry, looked up): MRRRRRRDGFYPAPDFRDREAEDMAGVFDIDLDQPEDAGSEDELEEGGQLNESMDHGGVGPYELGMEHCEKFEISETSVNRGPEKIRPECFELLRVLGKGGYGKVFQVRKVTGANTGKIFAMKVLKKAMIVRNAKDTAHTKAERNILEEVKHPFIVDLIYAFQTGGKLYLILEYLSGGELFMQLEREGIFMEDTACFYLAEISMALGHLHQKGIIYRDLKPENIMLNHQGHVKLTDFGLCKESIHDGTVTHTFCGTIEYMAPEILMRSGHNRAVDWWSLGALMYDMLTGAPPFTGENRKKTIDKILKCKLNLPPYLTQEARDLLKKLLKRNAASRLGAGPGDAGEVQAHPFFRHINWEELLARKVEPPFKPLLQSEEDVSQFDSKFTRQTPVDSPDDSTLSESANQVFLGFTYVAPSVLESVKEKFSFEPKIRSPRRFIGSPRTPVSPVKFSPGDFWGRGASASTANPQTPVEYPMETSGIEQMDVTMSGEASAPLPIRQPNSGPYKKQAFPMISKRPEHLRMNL
# UniProt Q15418, sequence (whole entry, looked up): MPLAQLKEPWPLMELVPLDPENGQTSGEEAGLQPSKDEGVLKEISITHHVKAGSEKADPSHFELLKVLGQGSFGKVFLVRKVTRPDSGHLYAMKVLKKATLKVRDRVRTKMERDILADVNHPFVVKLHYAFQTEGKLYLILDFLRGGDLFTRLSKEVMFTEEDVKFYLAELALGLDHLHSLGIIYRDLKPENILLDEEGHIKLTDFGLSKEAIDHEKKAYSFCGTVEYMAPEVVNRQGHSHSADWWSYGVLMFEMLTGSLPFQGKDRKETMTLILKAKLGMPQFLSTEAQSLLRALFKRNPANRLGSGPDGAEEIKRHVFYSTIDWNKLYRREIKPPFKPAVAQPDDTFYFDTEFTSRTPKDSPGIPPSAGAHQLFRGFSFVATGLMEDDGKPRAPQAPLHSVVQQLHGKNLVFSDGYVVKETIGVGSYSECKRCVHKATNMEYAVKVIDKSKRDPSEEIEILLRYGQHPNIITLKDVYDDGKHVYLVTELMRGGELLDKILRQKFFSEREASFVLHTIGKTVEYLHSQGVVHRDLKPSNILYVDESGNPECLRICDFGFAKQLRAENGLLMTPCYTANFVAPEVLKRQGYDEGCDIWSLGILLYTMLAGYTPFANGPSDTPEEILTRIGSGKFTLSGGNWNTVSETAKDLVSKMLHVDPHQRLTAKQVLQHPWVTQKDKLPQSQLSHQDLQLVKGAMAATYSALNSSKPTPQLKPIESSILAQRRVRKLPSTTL
# UniProt P54756, sequence (whole entry, looked up): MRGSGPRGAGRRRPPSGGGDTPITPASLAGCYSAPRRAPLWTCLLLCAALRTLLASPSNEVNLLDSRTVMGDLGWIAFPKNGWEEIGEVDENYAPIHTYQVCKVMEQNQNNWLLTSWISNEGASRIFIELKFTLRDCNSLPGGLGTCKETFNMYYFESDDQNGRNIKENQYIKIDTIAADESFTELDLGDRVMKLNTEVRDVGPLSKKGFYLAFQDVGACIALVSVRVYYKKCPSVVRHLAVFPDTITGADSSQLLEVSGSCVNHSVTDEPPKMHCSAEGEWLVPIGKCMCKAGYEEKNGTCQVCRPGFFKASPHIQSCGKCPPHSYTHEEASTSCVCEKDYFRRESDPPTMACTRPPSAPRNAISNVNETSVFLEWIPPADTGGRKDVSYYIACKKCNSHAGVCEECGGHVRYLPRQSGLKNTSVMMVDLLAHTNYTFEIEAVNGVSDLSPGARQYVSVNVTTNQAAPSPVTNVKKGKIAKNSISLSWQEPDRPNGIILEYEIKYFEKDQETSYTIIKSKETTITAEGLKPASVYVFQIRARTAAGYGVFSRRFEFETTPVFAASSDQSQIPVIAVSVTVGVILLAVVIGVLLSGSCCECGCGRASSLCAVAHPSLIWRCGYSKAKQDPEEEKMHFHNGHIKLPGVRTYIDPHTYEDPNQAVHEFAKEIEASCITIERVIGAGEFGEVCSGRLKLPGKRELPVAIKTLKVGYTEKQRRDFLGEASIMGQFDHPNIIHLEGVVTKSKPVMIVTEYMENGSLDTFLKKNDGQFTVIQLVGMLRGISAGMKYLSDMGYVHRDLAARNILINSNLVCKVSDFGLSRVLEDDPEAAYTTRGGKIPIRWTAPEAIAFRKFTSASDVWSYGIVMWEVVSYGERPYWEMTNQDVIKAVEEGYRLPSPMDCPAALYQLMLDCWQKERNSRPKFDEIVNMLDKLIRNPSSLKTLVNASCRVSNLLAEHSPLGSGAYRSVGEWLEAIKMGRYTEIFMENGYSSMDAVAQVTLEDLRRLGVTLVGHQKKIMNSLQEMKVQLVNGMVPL
# UniProt Q9NRM7, sequence (whole entry, looked up): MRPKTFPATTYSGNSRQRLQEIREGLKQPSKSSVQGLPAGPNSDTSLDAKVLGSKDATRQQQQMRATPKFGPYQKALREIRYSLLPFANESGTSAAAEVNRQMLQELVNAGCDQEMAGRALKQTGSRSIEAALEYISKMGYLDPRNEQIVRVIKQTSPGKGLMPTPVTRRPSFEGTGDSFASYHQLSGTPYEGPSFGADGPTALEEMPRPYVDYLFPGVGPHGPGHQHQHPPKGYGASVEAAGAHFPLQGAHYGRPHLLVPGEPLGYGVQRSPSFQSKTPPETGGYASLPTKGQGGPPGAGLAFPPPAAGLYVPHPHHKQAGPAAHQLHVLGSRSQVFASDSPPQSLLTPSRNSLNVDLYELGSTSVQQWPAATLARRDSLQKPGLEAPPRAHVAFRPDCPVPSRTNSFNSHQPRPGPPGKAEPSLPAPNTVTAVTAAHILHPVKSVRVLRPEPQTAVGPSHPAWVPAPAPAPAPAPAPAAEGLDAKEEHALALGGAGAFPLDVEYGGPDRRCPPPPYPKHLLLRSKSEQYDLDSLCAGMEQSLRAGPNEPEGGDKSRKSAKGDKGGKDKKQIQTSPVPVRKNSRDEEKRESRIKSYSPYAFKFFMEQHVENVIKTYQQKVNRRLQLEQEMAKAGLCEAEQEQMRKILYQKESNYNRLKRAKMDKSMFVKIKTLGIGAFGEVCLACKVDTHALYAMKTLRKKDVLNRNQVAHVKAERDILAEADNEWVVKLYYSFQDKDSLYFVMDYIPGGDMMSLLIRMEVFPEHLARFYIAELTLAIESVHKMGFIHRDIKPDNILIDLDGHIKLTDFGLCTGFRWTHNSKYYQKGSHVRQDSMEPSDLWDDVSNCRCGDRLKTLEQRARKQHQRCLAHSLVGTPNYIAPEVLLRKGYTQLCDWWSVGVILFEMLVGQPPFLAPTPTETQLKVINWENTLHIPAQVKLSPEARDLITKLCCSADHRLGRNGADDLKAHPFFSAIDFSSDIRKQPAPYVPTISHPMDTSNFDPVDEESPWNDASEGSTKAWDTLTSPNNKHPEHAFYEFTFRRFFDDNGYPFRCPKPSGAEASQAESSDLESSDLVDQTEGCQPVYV

# Set 1
# SMILES: CS(=O)(=O)N1CCCC(NC(=O)[C@H](CCC2CCCCC2)NC(=O)c2ccc(CNC(=O)c3cnc4ccccn34)cc2)C1 (stereo partly shown)
# Method: competition with immobilised ligand
# Tested at: 0.1 µM
target,assay,remaining binding [%]
"HCK (Homo sapiens, UniProt P08631)",cell-free assay,100
"EGFR (Homo sapiens, UniProt P00533, del747-752/P753S)",cell-free assay,99
"CHEK1 (Homo sapiens, UniProt O14757)",cell-free assay,100
"PIK3CA (Homo sapiens, UniProt P42336, I800L)",cell-free assay,100
"DYRK2 (Homo sapiens, UniProt Q92630)",cell-free assay,100
"CSNK2A2 (Homo sapiens, UniProt P19784)",cell-free assay,100
"LATS2 (Homo sapiens, UniProt Q9NRM7)",cell-free assay,76
"PIP4K2B (Homo sapiens, UniProt P78356)",cell-free assay,100
"CDK17 (Homo sapiens, UniProt Q00537)",cell-free assay,80
"MAP2K5 (Homo sapiens, UniProt Q13163)",cell-free assay,97
"CDK2 (Homo sapiens, UniProt P24941)",cell-free assay,88
"MAPK8 (Homo sapiens, UniProt P45983)",cell-free assay,100
"EPHA5 (Homo sapiens, UniProt P54756)",cell-free assay,100
"TAOK1 (Homo sapiens, UniProt Q7L7X3)",cell-free assay,88
"NUAK2 (Homo sapiens, UniProt Q9H093)",cell-free assay,100
"HIPK1 (Homo sapiens, UniProt Q86Z02)",cell-free assay,100
"PIK3C2G (Homo sapiens, UniProt O75747)",cell-free assay,100
"KIT (Homo sapiens, UniProt P10721, T670I/V559D)",cell-free assay,77
"Tyrosine-protein kinase ABL1, phosphorylated (ABL1, Homo sapiens, UniProt P00519, M351T)",cell-free assay,100
"ALK (Homo sapiens, UniProt Q9UM73)",cell-free assay,100
"CDC42BPB (Homo sapiens, UniProt Q9Y5S2)",cell-free assay,100
"Tyrosine-protein kinase ABL1, non-phosphorylated (ABL1, Homo sapiens, UniProt P00519, F317I)",binding,80

# Set 2
# Target: Calcium/calmodulin-dependent protein kinase type II subunit alpha (CAMK2A, Homo sapiens, UniProt Q9UQM7)
# UniProt Q9UQM7, sequence (whole entry, looked up): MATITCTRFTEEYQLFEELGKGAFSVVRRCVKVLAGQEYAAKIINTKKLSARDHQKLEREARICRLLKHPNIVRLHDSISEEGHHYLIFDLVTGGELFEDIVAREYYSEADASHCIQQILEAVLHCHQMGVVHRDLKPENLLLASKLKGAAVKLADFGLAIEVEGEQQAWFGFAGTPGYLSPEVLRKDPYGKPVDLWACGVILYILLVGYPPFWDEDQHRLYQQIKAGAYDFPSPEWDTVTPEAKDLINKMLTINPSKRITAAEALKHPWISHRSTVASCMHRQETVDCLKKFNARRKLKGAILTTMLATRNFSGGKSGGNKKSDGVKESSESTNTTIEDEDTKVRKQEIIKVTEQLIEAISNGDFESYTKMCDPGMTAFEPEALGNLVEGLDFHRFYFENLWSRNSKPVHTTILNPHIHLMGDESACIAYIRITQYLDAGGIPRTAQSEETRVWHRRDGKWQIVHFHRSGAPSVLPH
# Effect on: enzyme activity
# Mode: inhibitor
# Tested at: 10 µM
SMILES,inhibition [%]
C=C(C)C(=O)Cc1c(OC)ccc2ccc(=O)oc12,23
C[C@@H]1O[C@@H](O[C@@H]2[C@@H](O)[C@H](OCCc3ccc(O)c(O)c3)O[C@H](COC(=O)/C=C/c3ccc(O)c(O)c3)[C@H]2O)[C@H](O)[C@H](O)[C@H]1O,-15
C[C@@H](CN)C(=O)O,17
Cc1cc(NS(=O)(=O)c2ccc(N)cc2)no1,-14
COc1cc(/C=C/C(=O)O[C@@H]2C[C@](O)(C(=O)O)C[C@@H](O)[C@H]2O)ccc1O,-5
CCCCC[C@H](O)/C=C/[C@H]1[C@H](O)CC(=O)[C@@H]1C/C=C\CCCC(=O)O,37
COc1cc2c(=O)c(-c3ccc(O)cc3)coc2cc1O[C@@H]1O[C@H](COC(C)=O)[C@@H](O)[C@H](O)[C@H]1O,9
O=C(O)[C@H]1C[C@@H](O)CN1,-6
O=C(O)/C=C/CCCCCCCCC(=O)O,-9
C[C@H]1[C@H]2[C@H](O[C@@H]3O[C@H](CO)[C@@H](O)[C@H](O)[C@H]3O)OC=C(C(=O)O)[C@H]2C[C@@H]1O,27
CCCNC(C)C(=O)Nc1ccccc1C (stereo not shown),-10
CC(C)=CCC[C@](C)(O)[C@H]1CC[C@]2(C)[C@@H]1[C@H](O)C[C@@H]1[C@@]3(C)CC[C@H](O)C(C)(C)[C@@H]3[C@@H](O)C[C@]12C,-50

# Set 3
# Compound: CN1CCN(c2ccc3nc(-c4c(N)c5c(F)cccc5[nH]c4=O)[nH]c3c2)CC1
# Effect on: enzyme activity
# Mode: inhibitor
# Tested at: 0.5 µM
# Reference: control
target,remaining activity
"GSK3A (Homo sapiens, UniProt P49840)",100%
"EPHA7 (Homo sapiens, UniProt Q15375)",76.5%
"BMX (Homo sapiens, UniProt P51813)",70.1%
"MYLK (Homo sapiens, UniProt Q15746)",76.6%
"SRPK3 (Homo sapiens, UniProt Q9UPE1)",104%
"RPS6KB1 (Homo sapiens, UniProt P23443)",77.3%
"CSK (Homo sapiens, UniProt P41240)",88.4%
"SGK1 (Homo sapiens, UniProt O00141)",88.2%
"NUAK1 (Homo sapiens, UniProt O60285)",3.13%
"EPHB2 (Homo sapiens, UniProt P29323)",86.1%
"Aurora kinase C (AURKC, Homo sapiens, UniProt Q9UQB9)",82.3%
"PAK2 (Homo sapiens, UniProt Q13177)",96.9%
"GRK2 (Homo sapiens, UniProt P25098)",98.1%
"RPS6KA1 (Homo sapiens, UniProt Q15418)",22.2%
"GRK6 (Homo sapiens, UniProt P43250)",103%
"PRKCE (Homo sapiens, UniProt Q02156)",101%
"PRKCG (Homo sapiens, UniProt P05129)",86.9%

# Set 4
# Organism: Sarcocystis neurona
# Effect on: parasite growth
# Tested at: 10 µM
# Time: 96 h
SMILES,inhibition [%]
CC(=O)S[C@@H]1CC2=CC(=O)CC[C@]2(C)[C@H]2CC[C@@]3(C)[C@@H](CC[C@@]34CCC(=O)O4)[C@H]12,-2.8
Nc1nc(O)c2ncn(COC(CO)CO)c2n1,-16.4
CC(=O)Nc1ccc(CC(=O)O)cc1,-13.7
CS(=O)(=O)OCCCCOS(C)(=O)=O,-16.1
Cc1ccc(O)c([C@H](CCN(C(C)C)C(C)C)c2ccccc2)c1,-7.9
CC(C)(C#N)c1cc(Cn2cncn2)cc(C(C)(C)C#N)c1,-18.7
O=C(CCNNC(=O)c1ccncc1)NCc1ccccc1,-9.7
COCC1=C(C(=O)OC(C)OC(=O)OC(C)C)N2C(=O)[C@@H](NC(=O)/C(=N\OC)c3csc(N)n3)[C@H]2SC1 (stereo partly shown),-9.2
NCC(=O)CCC(=O)O,-14.7
CN(C)[C@@H]1C(O)=C(C(N)=O)C(=O)[C@@]2(O)C(O)=C3C(=O)c4c(O)cccc4[C@@](C)(O)[C@H]3C[C@@H]12,-0.646
COc1ccc(Cl)cc1C(=O)NCCc1ccc(S(=O)(=O)NC(=O)NC2CCCCC2)cc1,-9.1
CC1COc2c(N3CCN(C)CC3)c(F)cc3c(=O)c(C(=O)O)cn1c23 (stereo not shown),-4
CO/N=C(\C(=O)N[C@@H]1C(=O)N2C(C(=O)O)=C(COC(C)=O)CS[C@H]12)c1csc(N)n1,-15.7
Cc1ncc([N+](=O)[O-])n1CC(O)CCl (stereo not shown),-7.4
CC(C)C[C@H](NC(=O)[C@@H](O)[C@H](N)Cc1ccccc1)C(=O)O,-15.9
CC(=O)OCC(=O)NCCCOc1cccc(CN2CCCCC2)c1,-15.7

# A few entries again (set 1):
target,assay,remaining binding [%]
"EPHA5 (Homo sapiens, UniProt P54756)",cell-free assay,100
"TAOK1 (Homo sapiens, UniProt Q7L7X3)",cell-free assay,88
"NUAK2 (Homo sapiens, UniProt Q9H093)",cell-free assay,100
"HIPK1 (Homo sapiens, UniProt Q86Z02)",cell-free assay,100
"PIK3C2G (Homo sapiens, UniProt O75747)",cell-free assay,100
